Measurements pooled from the literature.
Numbered parts are unrelated; each lists some results of a single study.

Series 1
Target: Histone acetyltransferase KAT6A, both winged helices, GST fusion (KAT6A, Homo sapiens, UniProt Q92794, residues 1-181)
Technique: protein binding microarray
Form: double-stranded DNA, one strand shown
Medium: in vitro
Tested at: not given
Notes: 8-mer, flanks averaged, mean of 2 arrays, mostly near background
Baseline: not given
Reading: higher = stronger binding
Quantity: E-score
Construct (chain): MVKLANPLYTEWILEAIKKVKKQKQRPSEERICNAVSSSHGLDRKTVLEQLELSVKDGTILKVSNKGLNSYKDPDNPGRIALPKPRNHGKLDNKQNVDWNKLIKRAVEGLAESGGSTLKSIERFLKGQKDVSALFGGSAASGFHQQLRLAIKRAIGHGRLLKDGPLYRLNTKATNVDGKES
CGCATCAG: 0.179
TGGTATAA: -0.101
CAAGCGCG: 0.311
ACGCCGCA: 0.276
CCTGAGAA: -0.132
AAACAGTG: -0.0758
GCACGGCC: 0.271
AGATCCAC: -0.181
CTACGTGC: -0.0547
GGTGCGTA: 0.0919
GTACGTTA: 0.127
ACTAGCAC: -0.0198
CCATAGAA: -0.0666
AGGGCAAT: -0.0206
ACTCCAGG: -0.059
AACCCATC: -0.163
CTGGAAAC: -0.0664
CCAGGCTC: -0.0964
GAAGTTGA: -0.171
AGACAGTA: -0.351
AACTATCA: 0.00307
ACTAAACG: 0.0147
AGTAGCCG: 0.186
ATGCTACC: -0.0497
CCAGCCAA: -0.185

Series 2
Target: Ras GTPase-activating protein-binding protein 1, full length (G3BP1, Homo sapiens, UniProt Q13283)
Sequence of UniProt Q13283 (whole entry, looked up): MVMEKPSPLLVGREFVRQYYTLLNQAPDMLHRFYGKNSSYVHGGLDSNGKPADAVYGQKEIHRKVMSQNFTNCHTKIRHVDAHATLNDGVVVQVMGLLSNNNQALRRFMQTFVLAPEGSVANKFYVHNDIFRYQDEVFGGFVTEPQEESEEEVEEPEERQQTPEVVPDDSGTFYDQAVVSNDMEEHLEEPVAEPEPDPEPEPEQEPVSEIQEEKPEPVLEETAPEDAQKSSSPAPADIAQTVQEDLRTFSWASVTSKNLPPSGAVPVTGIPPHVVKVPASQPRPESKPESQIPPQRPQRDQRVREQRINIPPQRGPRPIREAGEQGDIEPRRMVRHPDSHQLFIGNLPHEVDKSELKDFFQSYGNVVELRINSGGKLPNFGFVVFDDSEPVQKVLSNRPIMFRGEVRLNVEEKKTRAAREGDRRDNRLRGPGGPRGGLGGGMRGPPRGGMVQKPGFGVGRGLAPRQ
Technique: RNA Bind-n-Seq
Form: RNA
Medium: in vitro
Tested at: 200 nM
Notes: whole 134-nt RNA, ends assumed
Added: 150 mM KCl
Baseline: input library
Reading: higher = stronger binding
Quantity: log2 enrichment
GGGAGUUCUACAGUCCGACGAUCCUUGACCCUCAACACCAACCAUGGGCAUAUCCUGGUGGAUUACUCCAAGAACCUGGUGACGGAGGACGUGAUGCGGAUGCUGGUGGACUUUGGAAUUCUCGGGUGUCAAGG: -1.41
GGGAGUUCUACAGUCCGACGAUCGAGUCCGGUUCGUGUUCGUCCGCGGAGAUCUCUCUCAUCUCGCUCGGCUGCGGGAAAUCGGGCUGAAGCGACUGAGUCCGCGAUGGAGGUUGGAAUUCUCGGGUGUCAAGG: -1.57
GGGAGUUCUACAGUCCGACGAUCGUCCUGUGCUACACAUCGUAUGUACCGAAUCGGGGUGGGGUUUUUGGGGAAAAAGGGGAAAGUAUUAUGUUACGCCGUUCGGAUCUGCACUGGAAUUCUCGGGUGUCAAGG: 0.266
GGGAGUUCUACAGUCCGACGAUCUGGGAGGUGGAUUUUGUGUAUUUUUUUAGCUCAUUUCCAGGGGUGGGAAUUUUUUUUUAAUAUGUGUCAUGAAUAAAGUUGUUUUUGAAAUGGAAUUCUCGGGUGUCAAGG: 0.177
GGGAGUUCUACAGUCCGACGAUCGUCCUGUGCUACACAUCGUAUGUACCGAAUCAAACCCAAACCCCCAAACCCCCCCAAAAAAGUAUUAUGUUACGCCGUUCGGAUCUGCACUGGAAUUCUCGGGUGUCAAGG: -0.282
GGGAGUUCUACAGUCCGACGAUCAAGUCCUGUGCUACACAUCGUAUGUACCGAAUCAAAUUUUUAAAUUUAAACCCAAAAAAGUAUUAUGUUACGCCGUUCGGAUCUGCACUUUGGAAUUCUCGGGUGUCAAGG: -0.468
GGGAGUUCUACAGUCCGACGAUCCAAGUCCUGUGCUACACAUCGUAUGUACCGAAUCGGUUUUUUUGGUUUGGAAAGGAAAGUAUUAUGUUACGCCGUUCGGAUCUGCACUUCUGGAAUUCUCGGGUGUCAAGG: -1.17
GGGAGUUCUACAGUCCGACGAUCCACAGACAACACGCACCCACACAGACACAGAGGGAAGGAAAUGGGAUGGGGACAGGGUGCACAGCAGGGCGGGGUAGGACCCCAGCCCCUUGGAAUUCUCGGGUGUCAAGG: 1.66
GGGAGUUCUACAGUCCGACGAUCUUGUGAUUAAGAUUUGUUCUUUUUCUCCCCUCUCUAUAGGAAGAUGAUCCCUAUGAUCUUGAAGAUGUUUCUGCACAGAAAUGAGGGAAAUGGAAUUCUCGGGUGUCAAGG: 0.598
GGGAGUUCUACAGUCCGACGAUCUAACUUUAGAGGAGGAUCUGAUGGAUAUGGCAAUGGACGUGGAUUUGGGGAUGGCUAUAAUGGGUAUGGAGGAGGACCUGGAGGUGGCAAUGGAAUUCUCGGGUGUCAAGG: 0.352

Series 3
Target: Prothrombin, mature alpha-thrombin (F2, Homo sapiens, UniProt P00734)
Technique: aptamer microarray, sandwich
Form: DNA with 2'F-ANA
Medium: in vitro
Tested at: 200 nM
Notes: whole 15-mer aptamer, many near background
Added: Cy3 exosite-II aptamer, 400 nM
Reading: higher = stronger binding
Quantity: mean fluorescence intensity
Strand: GGTTGGTGTGGTTGG
2'F-ANA at 2 4 6 7 8 9 11 12 14: 102 a.u.
2'F-ANA at 1 2 4 6 8 9 10 11 13: 53.3 a.u.
2'F-ANA at 1 2 3 4 6 7 10 11 12 15: 66.9 a.u.
2'F-ANA at 4 5 7 8 9 11 12 14: 119 a.u.
2'F-ANA at 3 4 8 10 11 12 15: 274 a.u.
2'F-ANA at 2 3 5 6 8 12 13 14: 55.8 a.u.
2'F-ANA at 6 7 12 14 15: 241 a.u.
2'F-ANA at 2 5 6 15: 79.9 a.u.
2'F-ANA at 4 5 6 7 11 13 14 15: 46.6 a.u.
2'F-ANA at 2 3 5 6 12 15: 173 a.u.
2'F-ANA at 1 2 5 13 15: 52.7 a.u.
2'F-ANA at 1 3 4 7 9 11 12: 320 a.u.
2'F-ANA at 1 3 7 11 12 15: 491 a.u.
2'F-ANA at 4 7 8 9 11 12 15: 519 a.u.
2'F-ANA at 1 2 3 4 5 6 10 14 15: 73.2 a.u.
2'F-ANA at 1 2 4 5 8 14 15: 51.4 a.u.
2'F-ANA at 2 3 5 8 9 11: 108 a.u.
2'F-ANA at 2 3 6 7 10 11 13: 296 a.u.
2'F-ANA at 1 2 4 6 8 9 10 13: 48.2 a.u.
2'F-ANA at 1 4 5 6 7 8 9 10 11 13 14: 50.7 a.u.
2'F-ANA at 1 3 4 5 6 7 9 14: 45.6 a.u.

Series 4
Target: RNA binding protein fox-1 homolog 2, RRM domain, GST-SBP tag (RBFOX2, Homo sapiens, UniProt O43251-10, residues 100-194)
Technique: RNA Bind-n-Seq
Form: RNA
Medium: in vitro
Tested at: 365 nM
Notes: natural RNA segment, single round, ends assumed
Baseline: no-protein control
Reading: higher = stronger binding
Quantity: RBNS enrichment (R)
Construct (chain): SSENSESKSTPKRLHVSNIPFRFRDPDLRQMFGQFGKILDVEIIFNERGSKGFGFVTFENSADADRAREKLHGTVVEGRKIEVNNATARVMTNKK
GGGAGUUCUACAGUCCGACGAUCCCUUCAACAAGCACACUGACAGAGAAAAAAAAAUAUGCUACUGUCUGUUGGUUCCAAUAUUCUCCCACCUAGAGCUUCCUGUUAAAGCAAGUGCGAUCAGCAACAUUUUUUGGAAUUCUCGGGUGCCAA: 0.87
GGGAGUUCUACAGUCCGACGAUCCUAAUAAAAUUGCCCGUUUUGCAUUUGUACCCAGAGUAAUAUGUGCCAGAUACUUCAAUCUCAGAAUUACUAAGAAUCUGGCAGAAGUCCAGAGAAAAGAAAGUAUAAUUUGGAAUUCUCGGGUGCCAA: 1.61
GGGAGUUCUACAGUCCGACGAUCCAAAGUUAUGAUGAACUGCAAACAUCCAAAGGAUGUGAGAGUUUUUCUAUGUAUAAUGUUUUAUACACUUUUUAACUGGUUGCACUACCCAUGAGGAAUUCGUGGAAUGGUGGAAUUCUCGGGUGCCAA: 0.76
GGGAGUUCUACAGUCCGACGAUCCUGCUCUCCUGUGUGUGCUGAGGGCCAGCCUCACCCCAGGCUAGCCUGGACCCCCAGUGCUCCCUGUGACAAUACUGUGAUAUCAAAAAACUGAUAAUAAUUGGGACAUCUGGAAUUCUCGGGUGCCAA: 0.527
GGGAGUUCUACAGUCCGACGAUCUUGGGUGUGGGGAAAAAUUUUUUUCUGAAGGCUCAAAAGUGGUUUCCUAAAAGUGAGCCACUAUCAGAUUUGCACAUCAGGAGAAAAGAAAUAGGGUUACGUCCAUUAGGUGGAAUUCUCGGGUGCCAA: 0.668
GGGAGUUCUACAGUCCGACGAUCCAGGACAGAGAGAAGGUCUACUGUUCAUGGGGAUUAGGCUUAUAGGAAUGUUAGUACCAAAUUUCUACAUGUGAGCUUUGGGGGCCAGGUCCUAGAGAGCCCAAGUGGGAUGGAAUUCUCGGGUGCCAA: 1.8
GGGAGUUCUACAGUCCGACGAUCAGCCAUGGCCCUCCAGCUCCCCAGCCCGGCUGCGGAGUUGCAGCAGGUCCUGCCCAUCGGGCACAUGUCUCAAGCCCAUGGGGAGCAUAGCAGUCCGGGAGGCUGUGGAAUGGAAUUCUCGGGUGCCAA: 0.716
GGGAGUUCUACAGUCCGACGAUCUAGAUAGAUGCCAAGCUUCUUAUGUUCUGGGGGUAGUAUGCAUCAUUAUUGGGUCUCUGCCUUAAAACACAUCAAAAUUCAUUUUAGACAAAAAAACUUCUGCUUUGUCUUGGAAUUCUCGGGUGCCAA: 0.477
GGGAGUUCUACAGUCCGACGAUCCAGUGGGGCACCAGCCGGCCACACCCAUUGCCUCGGCUGCCUCUUCAUAGACUCUUGCUGCCCAGCCGUUGGGGCCUCAGUGUUUGGGGUGAGGGAAGCCACUUAAAGACUGGAAUUCUCGGGUGCCAA: 0.301

Repeated from above (series 1):
GGTGCGTA: 0.0919
CTGGAAAC: -0.0664
ATGCTACC: -0.0497
ACTCCAGG: -0.059
ACTAGCAC: -0.0198
GTACGTTA: 0.127
CAAGCGCG: 0.311
